Experimental data from different studies.
A part holds a random share of what one study measured. Substitutions count along the parent as printed.

Series 1
Target: Centromere-binding protein 1, full length, His-tagged (CBF1, Saccharomyces cerevisiae, UniProt P17106, residues 1-351)
Sequence of UniProt P17106 (whole entry, looked up): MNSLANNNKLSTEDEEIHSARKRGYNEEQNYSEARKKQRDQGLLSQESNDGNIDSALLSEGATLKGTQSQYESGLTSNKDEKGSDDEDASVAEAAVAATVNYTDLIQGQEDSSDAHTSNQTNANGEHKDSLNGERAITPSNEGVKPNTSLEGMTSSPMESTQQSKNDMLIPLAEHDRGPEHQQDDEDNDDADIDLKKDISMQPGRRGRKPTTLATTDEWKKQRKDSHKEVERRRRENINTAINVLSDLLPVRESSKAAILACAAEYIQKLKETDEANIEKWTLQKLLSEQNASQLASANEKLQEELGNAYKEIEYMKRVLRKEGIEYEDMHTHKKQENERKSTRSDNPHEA
Technique: competition protein-binding microarray
Molecule type: double-stranded DNA, one strand shown
Medium: in vitro
Concentration: 2 µM
Notes: whole 60-bp probe, lowest competitor level
Added: Pho4 competitor, 0.05 µM
Direction: higher = stronger binding
Strand	fluorescence intensity
CATACCCAACCTTGATAGGTGGGTGAAGATATTTGTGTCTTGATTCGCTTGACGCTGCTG	56.6 a.u.
TTTATTTATTGAATTCACGTGTTGATGTTTTTTTCAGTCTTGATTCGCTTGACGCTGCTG	1540 a.u.
CTAACGAAGGTTTTTCACGTGCCGTACAAGCCAAGTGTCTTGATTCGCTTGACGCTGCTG	1130 a.u.
GTCAGAAAGCCGGGTAAGGTGTGCCAGCGAGAGTAAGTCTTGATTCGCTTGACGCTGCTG	62.2 a.u.
TGCGTTTGGTAGTCGCGCGTGAATATGCTAATTGGGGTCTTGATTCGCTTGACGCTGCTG	69.4 a.u.
TTTTCCGCCGCAATTTTCGTGACGGATGTCGTTCAGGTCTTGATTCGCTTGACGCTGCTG	67.2 a.u.
AAAGCGGTAATTTTTCACGTGCATTCACATATCTATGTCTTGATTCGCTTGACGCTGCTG	1100 a.u.
AGCGTTGAAGACAAATTCGTGACTCGTTGGTCCTAAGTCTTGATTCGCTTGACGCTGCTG	88.8 a.u.
GACACATTTGCCAAACACATGACAGAAGTGGCAATGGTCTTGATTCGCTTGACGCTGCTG	401 a.u.
CACAACAGTTCCAATCACGTGATGGTTACTGGACTTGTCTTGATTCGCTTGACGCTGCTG	10300 a.u.
TCAAGGCAAACGGGACATGTGGGGAGTTCGACTTTTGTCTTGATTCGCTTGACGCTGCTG	64.7 a.u.
GGAGCAAATAGTTGAAAGGTGTGCCATAAGAAGGTGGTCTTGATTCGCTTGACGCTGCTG	78.2 a.u.
ATTCTGGGATGCCCTGTCGTGGGTACAGTTGCCACAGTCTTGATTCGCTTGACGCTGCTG	60.1 a.u.
AAAGCGGTAATTTGTCACCCGACTTCACATATCTATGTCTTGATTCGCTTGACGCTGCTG	90.5 a.u.
CCGGTAAAAGCCGGGAACGTGCGGAACAATTTTTTTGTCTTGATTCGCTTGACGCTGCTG	91.8 a.u.
GGCCAGATCAATCAGCTCGTGTGGATAGGTTAGGTTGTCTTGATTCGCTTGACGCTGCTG	63.7 a.u.
CGTCCTAGCGATTGATTAGTGGGTGCCATGAGGAAGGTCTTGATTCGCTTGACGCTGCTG	73.3 a.u.
CCACAATCTGATGCTTTCGTGATGGATCCTCCAATTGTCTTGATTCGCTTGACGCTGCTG	60 a.u.
CATCGCACCCTGACATTCGTGACAAAATAAGAACAAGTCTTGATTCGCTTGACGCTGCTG	97.5 a.u.
CGGGGTTAAGTTTGACCAGTGGGTGGCTTGCAGCAGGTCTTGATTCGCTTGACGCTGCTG	61.3 a.u.
TCAACACTTCACCAACACGTGTCGGGGACCGCTTCAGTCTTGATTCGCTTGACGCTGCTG	713 a.u.
AAATTACTAAGTTGATATGTGGGTGACGCCGTATGAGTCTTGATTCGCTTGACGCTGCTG	63.7 a.u.
GCATAAGGAGTGGCCCATGTGTGCCAAAACTCTTCTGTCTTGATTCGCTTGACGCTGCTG	78.3 a.u.
CGCGTTTCTTTGTTCCACGTGCTAAGCGCCTCTCTTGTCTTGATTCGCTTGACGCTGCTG	846 a.u.
AAATTACTAAGTTGTCACACCACTTACCCCGTATGAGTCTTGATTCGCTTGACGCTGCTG	154 a.u.

Series 2
Target: CCND3, cyclin fold, Cln2 fusion (human)
Technique: yeast growth competition, sequencing
Medium: yeast
Notes: weak parent motif
Baseline: not given
Direction: higher = stronger binding
Starting sequence: E2F1 docking peptide (human); PPVKRRLDLETDH
Substitution	normalised enrichment score
VPVKRRLDLETDH [P1V]	0.0536
PPVKRRLDLEGDH [T11G]	0.0399
PPVKRRLDLELDH [T11L]	0.152
PPVKRNLDLETDH [R6N]	0.159
PPVKRRLALETDH [D8A]	0.127
PPVKRRLYLETDH [D8Y]	0.0687
PPVKRRLDLEFDH [T11F]	0.158
PPVKRRLDLATDH [E10A]	0.179
PGVKRRLDLETDH [P2G]	0.169
PPVKRRLDLHTDH [E10H]	0.219
PPVKRRLDLETDK [H13K]	0.221
PPVKRRLDLENDH [T11N]	0.0681
PPVKRRLDLETPH [D12P]	0.0968
PKVKRRLDLETDH [P2K]	0.0459
PPVKCRLDLETDH [R5C]	0.128
PPVKRRLDLQTDH [E10Q]	0.122
PPNKRRLDLETDH [V3N]	0.159

Series 3
Target: Ras GTPase-activating protein-binding protein 1, full length (G3BP1, Homo sapiens, UniProt Q13283)
Sequence of UniProt Q13283 (whole entry, looked up): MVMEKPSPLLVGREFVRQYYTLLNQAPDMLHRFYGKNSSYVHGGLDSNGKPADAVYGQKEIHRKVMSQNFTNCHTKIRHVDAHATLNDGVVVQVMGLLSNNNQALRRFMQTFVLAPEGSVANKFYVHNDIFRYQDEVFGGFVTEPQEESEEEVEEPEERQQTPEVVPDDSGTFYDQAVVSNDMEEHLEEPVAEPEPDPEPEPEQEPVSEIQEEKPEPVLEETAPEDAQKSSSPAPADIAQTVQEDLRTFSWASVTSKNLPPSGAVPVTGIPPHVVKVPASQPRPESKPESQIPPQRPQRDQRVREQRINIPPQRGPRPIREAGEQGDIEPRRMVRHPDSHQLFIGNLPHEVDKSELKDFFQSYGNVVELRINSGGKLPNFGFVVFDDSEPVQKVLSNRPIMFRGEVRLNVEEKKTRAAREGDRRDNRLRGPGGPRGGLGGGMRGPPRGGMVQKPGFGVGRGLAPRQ
Technique: RNA Bind-n-Seq
Molecule type: RNA
Medium: in vitro
Concentration: 200 nM
Notes: whole 134-nt RNA, ends assumed
Added: 150 mM LiCl
Baseline: input library
Direction: higher = stronger binding
Library: 7-deaza-guanosine replaces G
Strand	log2 enrichment
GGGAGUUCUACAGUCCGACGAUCGUCCUGUGCUACACAUCGUAUGUACCGAAUCGGGUUUUUGGUUUUUGGGGUUUUUGGGGAAAGUAUUAUGUUACGCCGUUCGGAUCUGCAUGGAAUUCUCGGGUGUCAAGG	-0.352
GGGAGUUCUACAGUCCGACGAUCCACAGACAACACGCACCCACACAGACACAGAGGGAAGGGGUUGGGAUGGGGACAGGGUGCACAGCAGGGCGGGGUAGGACCCCACCCCCUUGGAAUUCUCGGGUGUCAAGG	-0.619
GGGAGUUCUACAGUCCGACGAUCUAACUUUAGAGGAGGAUCUGAUGGAUAUGGCAGUGGACGUGGAUUUGGGGAUGGCUAUAAUGGGGAUGGAGGAGGACCUGGAGGUGGCAAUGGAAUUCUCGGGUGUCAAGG	0.048
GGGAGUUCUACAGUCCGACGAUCUCAAGUCCUGUGCUACACAUCGUAUGUACCGAAUCGGCCCGGCCCGGGGCCCGGGAAAGUAUUAUGUUACGCCGUUCGGAUCUGCACUUCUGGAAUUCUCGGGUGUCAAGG	-0.666
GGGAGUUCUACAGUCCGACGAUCAGUCCUGUGCUACACAUCGUAUGUACCGAAUCGGGCCCCGGGGCCCCGGGGCCCCGGGAAAGUAUUAUGUUACGCCGUUCGGAUCUGCACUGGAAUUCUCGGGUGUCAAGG	-0.0682
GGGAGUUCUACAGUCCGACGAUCCAAGUCCUGUGCUACACAUCGUAUGUACCGAAUCGGGAAAAAAAGGGUGGGAGGGAAAGUAUUAUGUUACGCCGUUCGGAUCUGCACUUCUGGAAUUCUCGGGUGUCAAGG	-0.172
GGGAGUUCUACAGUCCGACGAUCUGGCCCUGGUGGCAUGCGGGGAGGAAGAGGUGGCCUCGUGGAUCGUGGUGGUCCCGGUGGAAUGUUCAGAGGUGGCCGUGGUGGAGACAGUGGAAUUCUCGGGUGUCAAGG	0.392

Series 4
Target: Sal-like protein 4, full length isoform B (SALL4, Homo sapiens, UniProt Q9UJQ4-2, residues 1-616)
Technique: universal PBM
Molecule type: double-stranded DNA, one strand shown
Medium: in vitro
Concentration: not given
Notes: 8-mer, flanks averaged, mean of replicates
Direction: higher = stronger binding
Strand	E-score
AGCAGCCG	-0.266
ACCCCATC	-0.158
ACCGCCCG	-0.264
AATGTGGG	0.123
ATGCAGTC	0.102
ATGCCGTA	0.00567
CGAACGTA	0.0444
GTCTCCCA	-0.183
CGCGCCGC	-0.277
GGACTGCA	-0.139
CTGAGAGA	-0.133
AGTTTTGC	0.192
CCGCAGGC	-0.283
CGAAGAAC	-0.0387
AGACCTCG	-0.143
GATGCTGA	-0.109
CTCAGCTC	-0.313
CACGACTA	-0.0914
CTGACCCC	-0.266
TATGCTAA	0.197
AGAGCTGC	-0.316
ACTACAAG	0.141
GCCGCTGA	-0.162
ACGCGCCA	-0.201
CAGCGCCA	-0.304

Series 5
Target: RNA binding protein fox-1 homolog 2, RRM domain, GST-SBP tag (RBFOX2, Homo sapiens, UniProt O43251-10, residues 100-194)
Technique: RNA Bind-n-Seq
Molecule type: RNA
Medium: in vitro
Concentration: 365 nM
Notes: natural RNA segment, single round, ends assumed
Baseline: no-protein control
Direction: higher = stronger binding
Construct (chain): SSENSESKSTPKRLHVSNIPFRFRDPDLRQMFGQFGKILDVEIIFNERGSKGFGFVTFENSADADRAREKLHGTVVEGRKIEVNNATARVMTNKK
Strand	RBNS enrichment (R)
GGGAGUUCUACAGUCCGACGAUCUCAGUGUUGGAGCUCUCUAUGAGGCCUUCUAUCCUUUGGCCCAUGCCUUGGAUGGAGACAGACACUACUGGAGAAGGGGGCUGCCUUCCCCAGAAAGAAUACUACCUAAAUGGAAUUCUCGGGUGCCAA	0.237
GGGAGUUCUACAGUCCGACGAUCUGGGGGGAAGGAUUAUUAUUCAUGUUAUUUUCCCUGCCCAAGACUUUAUUUAACCCUGGACUCCGUUUACACAGACAAAGUGACAUCAGAAGGCUGAGCACUUAUCUGGAUGGAAUUCUCGGGUGCCAA	0.789
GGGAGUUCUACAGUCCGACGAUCUUUCUUACUUCAGGGAGGGGACAGUGGAAAUGCUGCAGGUCUCUGUCUUGGACACUGCAGAGUGCUGGGGACAGGGGUCACCGGUGUGGACCCUGCAGAGUGCUGGGGACUGGAAUUCUCGGGUGCCAA	0.373
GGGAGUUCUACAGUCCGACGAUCACCCUCCAUUUUUUCAUUACUCAACUUGUUCCCCAAGAAUAUAGUAUUCUAGGAUCCUAUUAGUCUGCUUUUCAUAUACUGUACUUUGAGUAUAGGGAAUGGGCACUGAGUGGAAUUCUCGGGUGCCAA	0.48
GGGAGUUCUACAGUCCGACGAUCCCAUCUAGUUGGUUUGGGGACCCUGGUGCAUGCUAGUGGGCAUGGGAUCAGCCAAGCUUCGUUCCAUCUUUUCCUAAAGGUCAGAGCUGCAGCCUAGGGGGCACUGCCCUUGGAAUUCUCGGGUGCCAA	3.76
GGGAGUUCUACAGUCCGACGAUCUUUGUAACCCCUUCAGCCUAGCCUCUCUGCCCAUUUAUUUCCAACCCCAACAGACACUGACAGGGUCCAUGGAAUUCUUCGGGAAAUCCUCCAAGGACUCUUGUCAGCUGUGGAAUUCUCGGGUGCCAA	0.518
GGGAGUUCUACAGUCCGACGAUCUUUUAAAACUAUGUAAUAUUUGGACCAGAUGUUGUGAAUAACAGUAGAGAAAGCUAUUUUAUUCUGUAUUUUUAAAACUGUUCCGUACAAAUAAAAGCUCUCCUGGAUGUUGGAAUUCUCGGGUGCCAA	0.457
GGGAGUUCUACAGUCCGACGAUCAAUCAGAAUAUCUUGGAUGGAACCCAGACAUCAGAUUAUUGUAUUUUCCCCCAUAAUUUAAAGUUCAGUCAUUAAGCUGUUACAUCCCUCUGAAGUUGAUUGUCUUAUAUUGGAAUUCUCGGGUGCCAA	0.607
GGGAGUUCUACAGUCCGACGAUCCUGAGGAAUGAUAGCGAAGAGUGUUUUUUUCAUAAACUGGAUCAAACUCCGUCUUCAUGUUUACCAUGGAGAGUUUUACAGAAAUCGGGCUGCACUCUGGGAGUGCUUACUGGAAUUCUCGGGUGCCAA	0.448
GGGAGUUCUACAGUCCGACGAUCCCUGAAAUAUUAAGGGCAGUUUGCUUCUAGUUUGGGGAUUGCGCUAGCCCAAUGAAGGUGAUGAAGCUUUUGGAUUUGGAGGGUAAAAGCUCCUUCACACCCCUUCCAAAUGGAAUUCUCGGGUGCCAA	0.304
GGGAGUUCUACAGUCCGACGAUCAGUGUUGACCACUGAAGCAUCUUUUAAGUCUGUGUUCCAUUGUGCCAUUCAGGUUUGCUGUCACAUAUGCAUCAUCUGAAAUCAUUUGAAAUUUUUGUACAAUAAAAUAUUGGAAUUCUCGGGUGCCAA	3.49
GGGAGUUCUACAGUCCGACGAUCGGAUUCCUGGGCAUCUACUUCCACAACUAAUACGUAUUCCACAGUGUUGGCUGUUGGCUUCAAAAAAAGGAAUUCUCUUAACAUGCUAUGUUGGUCAGCGUCCACCUCCUUGGAAUUCUCGGGUGCCAA	0.595

Series 6
Target: ABI1, truncated, D143A, DHFR fusion (Arabidopsis thaliana)
Technique: DHFR PCA, deep sequencing
Medium: yeast
Notes: methotrexate growth selection, single substitutions
Added: (+)-ABA 0.39 µM
Baseline: wild-type fitted maximum
Direction: higher = stronger binding
Starting sequence: PYL1, truncated, DHFR fusion (Arabidopsis thaliana); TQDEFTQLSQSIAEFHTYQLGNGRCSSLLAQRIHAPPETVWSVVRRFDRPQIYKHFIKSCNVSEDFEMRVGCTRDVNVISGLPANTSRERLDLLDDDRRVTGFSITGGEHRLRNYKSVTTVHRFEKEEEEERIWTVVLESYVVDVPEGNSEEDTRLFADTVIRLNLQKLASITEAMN
Substitution	relative binding score [%]
N22F	27.3
K126D	73.1
M176I	21.1
M176A	27.8
L82V	15
K58A	22.8
V78G	19
Y115F	34.5
Q2C	51.5
H122T	-11.6
F56C	5.4
L156M	44.4
V161Q	38.8
M176R	25.6
L82I	35
H16D	-7.12
T6S	51.5
V70Q	6.51
V118K	19.7
L164H	39.3
R132L	37.4
